# Experimental data gathered from unrelated publications.
# Compare with care: the assays were run in different laboratories. Numbers after ± are the reported error.
# SLCO1B1: Solute carrier organic anion transporter family member 1B1 (SLCO1B1, Homo sapiens, UniProt Q9Y6L6)
# Sequence of UniProt Q9Y6L6 (whole entry, looked up): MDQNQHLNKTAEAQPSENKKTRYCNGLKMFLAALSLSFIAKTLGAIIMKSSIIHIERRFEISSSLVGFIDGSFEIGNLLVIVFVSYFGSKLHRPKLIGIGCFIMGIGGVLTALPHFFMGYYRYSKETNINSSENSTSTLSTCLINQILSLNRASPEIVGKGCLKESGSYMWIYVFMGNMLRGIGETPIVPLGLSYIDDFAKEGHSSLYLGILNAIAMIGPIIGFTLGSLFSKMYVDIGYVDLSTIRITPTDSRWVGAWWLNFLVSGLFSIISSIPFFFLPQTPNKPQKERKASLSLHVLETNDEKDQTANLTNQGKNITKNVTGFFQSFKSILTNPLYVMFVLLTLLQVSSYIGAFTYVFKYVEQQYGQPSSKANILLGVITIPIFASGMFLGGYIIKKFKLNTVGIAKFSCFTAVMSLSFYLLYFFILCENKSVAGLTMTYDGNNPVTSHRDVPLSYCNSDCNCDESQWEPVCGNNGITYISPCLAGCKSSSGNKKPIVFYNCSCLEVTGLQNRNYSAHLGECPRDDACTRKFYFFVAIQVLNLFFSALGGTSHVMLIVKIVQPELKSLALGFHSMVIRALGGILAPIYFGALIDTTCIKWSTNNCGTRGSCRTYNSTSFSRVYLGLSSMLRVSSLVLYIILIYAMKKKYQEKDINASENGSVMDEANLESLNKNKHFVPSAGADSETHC
# CYP2E1: Cytochrome P450 2E1 (CYP2E1, Homo sapiens, UniProt P05181)
# Sequence of UniProt P05181 (whole entry, looked up): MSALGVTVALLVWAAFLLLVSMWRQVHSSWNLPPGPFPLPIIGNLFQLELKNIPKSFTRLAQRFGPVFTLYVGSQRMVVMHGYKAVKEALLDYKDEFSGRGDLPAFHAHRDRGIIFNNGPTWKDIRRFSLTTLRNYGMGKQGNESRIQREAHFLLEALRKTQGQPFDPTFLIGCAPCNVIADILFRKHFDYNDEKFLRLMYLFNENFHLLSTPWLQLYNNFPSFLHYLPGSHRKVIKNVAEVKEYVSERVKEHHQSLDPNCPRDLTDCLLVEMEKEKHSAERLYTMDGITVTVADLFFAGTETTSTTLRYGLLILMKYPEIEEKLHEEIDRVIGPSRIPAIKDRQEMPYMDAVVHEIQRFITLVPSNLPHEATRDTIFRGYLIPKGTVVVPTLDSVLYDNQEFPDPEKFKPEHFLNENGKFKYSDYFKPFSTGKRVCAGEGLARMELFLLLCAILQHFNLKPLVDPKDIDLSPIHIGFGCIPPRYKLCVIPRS
# Broad substrate specificity ATP-binding cassette transporter ABCG2: Broad substrate specificity ATP-binding cassette transporter ABCG2 (Mus musculus, UniProt Q7TMS5)
# Sequence of UniProt Q7TMS5 (whole entry, looked up): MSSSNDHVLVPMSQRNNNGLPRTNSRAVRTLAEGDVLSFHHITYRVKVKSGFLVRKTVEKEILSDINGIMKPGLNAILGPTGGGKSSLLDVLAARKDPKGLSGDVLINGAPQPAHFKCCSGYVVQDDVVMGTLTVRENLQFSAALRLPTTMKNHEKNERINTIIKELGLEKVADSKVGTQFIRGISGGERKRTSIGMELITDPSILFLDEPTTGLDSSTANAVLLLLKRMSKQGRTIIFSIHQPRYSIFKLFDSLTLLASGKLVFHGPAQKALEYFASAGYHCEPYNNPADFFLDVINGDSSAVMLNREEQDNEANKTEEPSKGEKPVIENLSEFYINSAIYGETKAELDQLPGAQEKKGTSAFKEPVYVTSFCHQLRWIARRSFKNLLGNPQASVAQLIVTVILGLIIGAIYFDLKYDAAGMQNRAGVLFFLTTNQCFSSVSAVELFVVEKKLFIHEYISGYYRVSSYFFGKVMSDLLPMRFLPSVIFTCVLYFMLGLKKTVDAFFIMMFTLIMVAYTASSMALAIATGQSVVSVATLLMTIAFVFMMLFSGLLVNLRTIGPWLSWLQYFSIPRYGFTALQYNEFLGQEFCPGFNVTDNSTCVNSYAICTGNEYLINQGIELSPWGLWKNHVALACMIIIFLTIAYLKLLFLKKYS
# Sequence of UniProt P08183 (whole entry, looked up): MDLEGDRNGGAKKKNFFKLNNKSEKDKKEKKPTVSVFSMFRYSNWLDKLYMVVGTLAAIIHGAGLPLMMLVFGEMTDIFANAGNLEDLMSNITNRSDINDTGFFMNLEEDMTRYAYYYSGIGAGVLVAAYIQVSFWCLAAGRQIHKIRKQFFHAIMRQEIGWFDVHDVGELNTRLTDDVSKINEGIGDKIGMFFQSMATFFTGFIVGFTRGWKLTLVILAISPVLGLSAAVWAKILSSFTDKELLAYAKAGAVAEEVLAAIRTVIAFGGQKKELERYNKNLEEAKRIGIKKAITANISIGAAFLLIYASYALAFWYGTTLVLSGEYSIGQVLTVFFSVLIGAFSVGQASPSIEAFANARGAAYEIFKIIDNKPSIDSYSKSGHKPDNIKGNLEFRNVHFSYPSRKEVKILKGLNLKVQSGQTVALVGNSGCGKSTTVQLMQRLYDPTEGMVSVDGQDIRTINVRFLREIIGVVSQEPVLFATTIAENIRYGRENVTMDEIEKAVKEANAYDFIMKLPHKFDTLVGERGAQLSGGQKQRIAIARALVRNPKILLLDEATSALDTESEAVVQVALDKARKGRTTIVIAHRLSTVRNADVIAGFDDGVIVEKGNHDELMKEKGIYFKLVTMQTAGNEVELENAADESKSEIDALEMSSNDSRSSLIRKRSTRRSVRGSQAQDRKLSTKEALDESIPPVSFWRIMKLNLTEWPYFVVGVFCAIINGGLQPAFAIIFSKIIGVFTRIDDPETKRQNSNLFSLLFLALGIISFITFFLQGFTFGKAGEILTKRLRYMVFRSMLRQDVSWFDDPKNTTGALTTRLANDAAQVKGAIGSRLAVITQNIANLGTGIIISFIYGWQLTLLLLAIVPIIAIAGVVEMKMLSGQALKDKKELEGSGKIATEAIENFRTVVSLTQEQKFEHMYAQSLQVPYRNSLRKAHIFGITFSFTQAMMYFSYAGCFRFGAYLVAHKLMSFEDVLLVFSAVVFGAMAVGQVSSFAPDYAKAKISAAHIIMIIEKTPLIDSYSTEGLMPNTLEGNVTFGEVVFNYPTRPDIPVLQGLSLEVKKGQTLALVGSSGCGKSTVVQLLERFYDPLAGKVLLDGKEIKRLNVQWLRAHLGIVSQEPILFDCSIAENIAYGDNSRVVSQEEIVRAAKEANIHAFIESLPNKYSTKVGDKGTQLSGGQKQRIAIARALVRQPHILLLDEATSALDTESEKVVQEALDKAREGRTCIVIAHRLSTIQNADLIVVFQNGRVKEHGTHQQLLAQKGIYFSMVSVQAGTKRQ
# Sequence of UniProt P08684 (whole entry, looked up): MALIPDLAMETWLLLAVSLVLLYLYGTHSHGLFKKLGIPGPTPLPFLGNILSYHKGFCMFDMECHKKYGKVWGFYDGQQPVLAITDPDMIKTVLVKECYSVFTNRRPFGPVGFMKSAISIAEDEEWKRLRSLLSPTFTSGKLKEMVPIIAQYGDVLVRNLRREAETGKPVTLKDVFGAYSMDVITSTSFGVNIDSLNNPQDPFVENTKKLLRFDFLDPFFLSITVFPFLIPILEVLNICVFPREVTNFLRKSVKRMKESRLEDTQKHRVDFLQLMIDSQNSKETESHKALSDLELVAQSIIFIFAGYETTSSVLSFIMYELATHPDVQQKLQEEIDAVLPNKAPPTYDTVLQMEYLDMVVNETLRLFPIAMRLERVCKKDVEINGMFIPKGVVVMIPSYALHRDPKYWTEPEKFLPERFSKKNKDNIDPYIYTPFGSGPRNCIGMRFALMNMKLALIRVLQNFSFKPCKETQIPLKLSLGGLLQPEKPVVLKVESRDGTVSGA
# Sequence of UniProt P05177 (whole entry, looked up): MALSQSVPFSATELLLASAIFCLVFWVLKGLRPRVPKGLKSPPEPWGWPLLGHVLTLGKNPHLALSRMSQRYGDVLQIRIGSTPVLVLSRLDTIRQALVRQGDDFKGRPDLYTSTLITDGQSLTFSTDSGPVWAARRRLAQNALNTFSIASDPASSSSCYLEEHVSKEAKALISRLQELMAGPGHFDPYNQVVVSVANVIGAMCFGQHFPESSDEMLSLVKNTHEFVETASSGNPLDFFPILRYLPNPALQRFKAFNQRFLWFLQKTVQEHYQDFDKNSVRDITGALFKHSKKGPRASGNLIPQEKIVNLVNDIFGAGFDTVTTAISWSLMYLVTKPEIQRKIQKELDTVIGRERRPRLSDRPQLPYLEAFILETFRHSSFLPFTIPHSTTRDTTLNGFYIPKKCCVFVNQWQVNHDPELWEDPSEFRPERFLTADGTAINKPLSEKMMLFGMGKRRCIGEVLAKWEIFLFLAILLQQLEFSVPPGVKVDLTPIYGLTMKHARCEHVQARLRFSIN
# Sequence of UniProt P49888 (whole entry, looked up): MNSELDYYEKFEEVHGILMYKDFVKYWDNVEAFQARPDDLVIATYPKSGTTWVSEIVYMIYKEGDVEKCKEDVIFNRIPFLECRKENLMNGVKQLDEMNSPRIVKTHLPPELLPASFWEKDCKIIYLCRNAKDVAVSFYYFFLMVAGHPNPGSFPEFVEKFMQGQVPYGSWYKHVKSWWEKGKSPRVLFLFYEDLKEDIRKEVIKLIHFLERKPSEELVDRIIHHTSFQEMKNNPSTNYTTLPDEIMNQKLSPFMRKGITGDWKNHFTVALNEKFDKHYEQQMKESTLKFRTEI
SMILES,tested on,assay,system,setting,scale,endpoint,value
C=C[C@@H]1C[C@]1(NC(=O)[C@@H]1C[C@@H]2CN1C(=O)[C@H](C(C)(C)C)NC(=O)O[C@@H]1C[C@H]1CCCCCc1nc3ccc(OC)cc3nc1O2)C(=O)NS(=O)(=O)C1CC1,SLCO1B1,"uptake, substrate",HEK293 transfected,relative activity factor scaled,relative to: mock cells,Vmax,8.34 pmol/min/mg protein
CC(C)=CCc1c(O)cc(O)c2c1O[C@H](c1ccc(O)cc1)CC2=O,human CYP2B6,,,"10 µM, pH 7.4",,inhibition,34.7 ± 1.7%
Cc1ccccc1-c1ccc([C@@H]2[C@@H](CO)N3CCCCN(S(C)(=O)=O)C[C@@H]23)cc1,"IDE (Homo sapiens, UniProt P14735)","enzyme activity, inhibitor, fluorogenic kinetic",,together with: Mca-RPPGFSAFK(Dnp)-OH substrate,,EC50,1300 nM
Cn1c(=O)c2c(ncn2C)n(C)c1=O,"Cytochrome P450 1A2 (CYP1A2, Homo sapiens, UniProt P05177)",,"human, plasma","oral, 200 mg, day 1, alone, geometric mean",,Cmax,4190 ng/mL
c1ccc2cnccc2c1,CYP2E1,inhibitor,reconstituted CYP-CPR-b5 system,"competitive inhibition model, together with: p-nitrophenol",,Ki,544 ± 105 nM
N#C[C@H](C[C@@H]1CCCNC1=O)NC(=O)[C@H](CC1CC1)NC(=O)c1cc2cccc(Cl)c2[nH]1,CYP2E1,ISEF abundance scaling,,"2 µM, pH 7.4",,fraction metabolised,< 1%
C[C@H]1CN(C2COC2)CCN1c1ccc(Nc2cc(-c3ccnc(N4CCn5c(cc6c5CC(C)(C)C6)C4=O)c3CO)cn(C)c2=O)nc1,human CYP2B6,,human liver microsomes,"1 µM, 60 min, pH 7.4, together with: PPP 20 µM, NADPH",relative to: 0 min,remaining compound,54.4 ± 4.4%
O=c1c(-c2ccc(O)cc2)coc2cc(O)ccc12,"Androgen receptor (AR, Homo sapiens, UniProt P10275, Q868H)","luciferase reporter gene, antagonist",,"concentration not given, heat-inactivated rat liver microsomes",,antagonist activity,inactive
CC1(C)CCC2(CC1)N[C@@H](C(=O)N[C@@H]1CC[C@@H](C(N)=O)OC1)[C@H](c1ccnc(Cl)c1F)[C@]21C(=O)Nc2cc(Cl)ccc21,"ABCB1 (Homo sapiens, UniProt P08183)",,Caco-2 monolayers,"100 µM, 120 min, no inhibitor",,Papp B to A,5.79 ×10⁻⁶ cm/s
O=C1[C@H](CC[C@H](O)c2ccc(F)cc2)[C@@H](c2ccc(O)cc2)N1c1ccc(F)cc1,SLCO1B1,"inhibitor, item: coproporphyrin I",MDCKII-SLCO1B1,up to 10 µM,,CPI accumulation,no effect
CC[C@H]1[C@@H](O)[C@@H]2[C@H](CC[C@]3(C)[C@@H]([C@H](C)CCNC(=O)NS(=O)(=O)c4ccc(C(C)(C)C)cc4)CC[C@@H]23)[C@@]2(C)CC[C@@H](O)C[C@@H]12,"Cytochrome P450 3A4 (CYP3A4, Homo sapiens, UniProt P08684)",substrate,"human, plasma","10 mg, alone, study day 1",,CL/F mean,30.5 L/h
COc1cc2c(CCNC(C)=O)c[nH]c2cc1O,"SULT1E1 (Homo sapiens, UniProt P49888)","substrate, sulfation, purified enzyme",,"10 µM, 10 min, pH 7.0, 37 °C",,specific activity,1.65 ± 0.2 nmol/min/mg
O=c1[nH]c(=O)c(Cc2cccc(C(F)(F)F)c2)c([C@H]2CC[C@H](c3ccccc3)CC2)[nH]1,SLCO1B1,"uptake, inhibitor",HEK cells expressing SLCO1B1,together with: estradiol 17-beta-D-glucuronide,,IC50,> 1000 nM
CC1=CC(=O)CC(C)(C)[C@@]1(O)/C=C/C(C)=C\C(=O)O,HBL-1,,,"0.5 µM, 120 h",,viability,72%
C#C[C@]1(O)CC[C@H]2[C@@H]3CCC4=CC(=NO)CC[C@@H]4[C@H]3CC[C@@]21CC (mixture of isomers),human CYP2B6,retrograde calculation,microsomal incubation,,,unbound fraction in microsomes,1
Cc1oc2ccccc2c1Cc1cc(I)c(OCC(=O)O)c(I)c1,"KCNH2 (Homo sapiens, UniProt Q12809, S620T)","potassium current, outside-out excised patch",Xenopus oocytes,"10 µM, bath application",,current effect,no effect
c1ccc2ncccc2c1,CYP2E1,enzyme activity,human,"100 µM, 20 min",,inhibition,~50%
Cn1ncnc1[C@H]1c2n[nH]c(=O)c3cc(F)cc(c23)N[C@@H]1c1ccc(F)cc1,Broad substrate specificity ATP-binding cassette transporter ABCG2,,MDCK-II Bcrp1-overexpressing,"1 µM, together with: Ko143 200 nM",relative to: vector control cells,intracellular accumulation,242 ± 46.9%
CC(C)=CCc1c(O)cc2c(c1O)C(=O)C[C@@H](c1ccc(O)cc1)O2,human CYP2B6,,,"1 µM, pH 7.4",,inhibition,< 10%
C[C@@H]1CC[C@]2(C(=O)O[C@@H]3O[C@H](CO)[C@@H](O)[C@H](O)[C@H]3O)CC[C@]3(C)C(=CC[C@@H]4[C@@]5(C)CC[C@H](O)[C@@](C)(CO)[C@@H]5CC[C@]43C)[C@@H]2[C@]1(C)O,human CYP3A4/5,"mechanism-based inhibitor, item: 6β-hydroxytestosterone",pooled human liver microsomes,"50 µM, 30 min preincubation, together with: testosterone 17.34 µM",,remaining activity,79.1%
CCCCC1=NC2(CCCC2)C(=O)N1Cc1ccc(-c2ccccc2S(=O)(=O)Nc2noc(C)c2C)c(COCC)c1,CYP3A4,"enzyme induction, inducer",human,,,EC50,1830 nM
O=C(O)[C@H]1O[C@@H](Oc2ccc([C@@H]3[C@@H](CC[C@H](O)c4ccc(F)cc4)C(=O)N3c3ccc(F)cc3)cc2)[C@H](O)[C@@H](O)[C@@H]1O,SLCO1B1,"transporter uptake, inhibitor",MDCKII expressing SLCO1B1,"10 min, together with: 1 µM coproporphyrin I",,IC50,1970 nM
Nc1nccc2c1ncn2[C@@H]1C=C(CO)[C@@H](O)[C@H]1O,HBL-1,,,"0.5 µM, 120 h",,viability,75%
CN1C[C@@H]2C[C@H]1CN2c1cc2c(cc1F)c(=O)c(C(=O)O)cn2C1CC1,Broad substrate specificity ATP-binding cassette transporter ABCG2,substrate,MDCK-II transduced with mouse Abcg2,"10 µM, 4 h, apical to basolateral",,transport,5.82 ± 3.48%

# For quick reference, copied from above:
SMILES,tested on,assay,system,setting,scale,endpoint,value
N#C[C@H](C[C@@H]1CCCNC1=O)NC(=O)[C@H](CC1CC1)NC(=O)c1cc2cccc(Cl)c2[nH]1,CYP2E1,ISEF abundance scaling,,"2 µM, pH 7.4",,fraction metabolised,< 1%
C[C@H]1CN(C2COC2)CCN1c1ccc(Nc2cc(-c3ccnc(N4CCn5c(cc6c5CC(C)(C)C6)C4=O)c3CO)cn(C)c2=O)nc1,human CYP2B6,,human liver microsomes,"1 µM, 60 min, pH 7.4, together with: PPP 20 µM, NADPH",relative to: 0 min,remaining compound,54.4 ± 4.4%
